Assay results gathered from unrelated publications.
Protocols differ between the studies behind these lines. “And” joins repeats or separate records; there may be more than shown. ± marks the error that the study gave.

CN[C@@H]1COc2c(S(=O)(=O)NC(=O)Nc3c4c(cc5c3CCC5)CCC4)cnn2C1  inhibition (item: IL-1β; human participants, whole blood ex vivo; 1800 mg single dose, 4 h, together with: LPS/ATP; relative to: baseline): 99.9%
CC(O)CC(=O)SCCNC(=O)CCNC(=O)[C@H](O)C(C)(C)COP(=O)(O)OP(=O)(O)OC[C@H]1O[C@@H](n2cnc3c(N)ncnc32)[C@H](O)[C@@H]1OP(=O)(O)O (some centres unmarked)  log2 fold change (binding, MIDAS equilibrium dialysis LC-MS; A2AR-BRIL thermostabilized; concentration not given; relative to: no-protein control): -0.495
Cc1cc(C)c(CNC(=O)c2cc(Cl)c3c(c2C)O[C@@](C)([C@H]2CC[C@H](N(C)C)CC2)O3)c(=O)[nH]1  best overall response CR (IWG 2007 criteria; human, relapsed/refractory angioimmunoblastic T-cell lymphoma; dose not given): 45%
OC(CCN1CCCCC1)(c1ccccc1)C1CC2C=CC1C2 (centres unmarked)  EEG Beta1-power Pz-O1 (resting-state EEG; healthy elderly humans; oral, 2 mg, eyes closed, LS mean): 4.6 µV²
Cc1cc([C@H]2C[C@H]3[C@@H](C)SC(N)=N[C@@]3(c3ccc(F)cc3F)CO2)on1  brain Aβ40 level (item: Aβx-40; wild-type mouse, brain; subcutaneous, 50 mg/kg, 1 h): 1.73 ng/g
N#Cc1ccc2c(c1)[C@H]1CCCN(C(=O)c3ccc4[nH]cnc4c3)[C@H]1C2  change from baseline (item: systolic blood pressure; human; 20 mg once daily, day 28, adjusted mean; relative to: placebo): 4 mmHg
COc1cccc(C(=O)O)c1N  log2 fold change (binding, MIDAS equilibrium dialysis LC-MS; A2AR-BRIL thermostabilized; concentration not given; relative to: no-protein control): -0.0505
COc1ccc(-c2cncc(N[C@@H](C)c3cccc(NC(=O)c4cncc(C)c4)c3)n2)cc1OC  delta delta Ct (item: rno-miR-204-5p; rat SU5416/hypoxia model, lung; dose not given, unit not given; relative to: SU5416/hypoxia vehicle): -0.927
COc1cccc2c1C(=O)c1c(O)c3c(c(O)c1C2=O)C[C@@](O)(C(=O)CO)C[C@@H]3O[C@H]1C[C@H](N)[C@H](O)[C@H](C)O1  IC50 (organoid viability, CellTiter-Glo 3D; sample B colorectal cancer organoid, human; 6 days): 0.0237 µM
Cc1cc([C@H]2C[C@H]3[C@@H](CF)SC(N)=N[C@@]3(c3ccc(F)cc3F)CO2)on1  brain Aβ40 level (item: Aβx-40; wild-type mouse, brain; subcutaneous, 100 mg/kg, 3 h): 1.5 ng/g
CC(C)NCC(O)c1ccc(O)c(O)c1 (centres unmarked)  sarcomere length (ventricular cardiomyocytes, C57BL/6 mouse; dose not given, 0.352 s): 1.72 µm
COC[C@@H](c1ccc(C(F)(F)F)cc1)N1CCN(C2(C)CCN(C(=O)c3c(C)ncnc3C)CC2)C[C@@H]1C  change in HIV-1 RNA (HIV-1 infected patients, plasma; 5 mg, week 24, with optimized background regimen; relative to: baseline): -2.06 log10 copies/mL
c1ccc(-c2n[nH]cc2-c2ccnc3ccccc23)nc1  log2 fold change (kinase binding, competitor, MIB/MS competition, item: SHA3; Candida albicans cell lysate; 10 µM; relative to: DMSO): 0.845
Nc1nc(C(F)(F)F)nc2c1nnn2C[C@H]1CN(Cc2nccs2)CCO1  Wnt4 mRNA level (RT-qPCR; Ocy454, mouse; 1 µM; relative to: 100 nM): increased
Cc1cnc(N2CC3(CCOCC3)C2)c(C(=O)Nc2ccc(C(=O)N3CCc4cc(C(=O)Nc5c(C)cccc5F)sc4-c4ccccc43)cc2)c1  inhibition of HMGB1 AUC (human, RSV infection, nasal wash; dose not given, ITT-I population; relative to: placebo): 3%
Cc1cn(-c2ccc3n(c2=O)CCN([C@@H](C)[C@@H]2CC[C@H](c4cc(F)c(Cl)cc4C(F)(F)F)O2)C3=O)cn1  change from baseline (item: amyloid beta 40; human, non-elderly, cerebrospinal fluid; 360 mg once daily, 14 days, sampled 336 h; relative to: placebo): -49.9%
O[C@H]1CCCN[C@@H]1CCCn1cnc2c(Cl)c(Cl)ccc21  maximum reduction (ELISA, item: Pro-C6; healthy human volunteers, serum; 100 mg, day 1, multiple ascending dose): 11.6%
NCC(=O)Nc1cncc(-c2nn3c(=O)cc(N4CCNCC4)nc3s2)c1  inhibition (ADP-induced platelet aggregation, light transmission aggregometry; human, stable CAD on aspirin, ex vivo platelets; subcutaneous, 0.04 mg/kg, 30 min post-dose, median value, together with: ADP 20 µM): 45%
CCn1cc(-c2cc(Cn3ccnc3)cc3c2CCN([C@H](c2cc(OC)ccn2)C2CC2)C3=O)c(C(F)(F)F)n1  EC50 (HCC78; cell growth, inhibitor; 120 h): 15.3 µM
N#Cc1ccc2c(-c3ccncc3)c(-c3ccc(F)cc3)nn2c1  log2 fold change (kinase binding, competitor, MIB/MS competition, item: CAK1; Candida albicans cell lysate; 10 µM; relative to: DMSO): 0.29
COc1cc2cc(-c3ccc(CC(=O)Nc4cc(C(C)(C)C(F)(F)F)no4)cn3)cnc2cc1OC  best overall response SD (RECIST v1.1; human RET-altered solid tumours; 13 100 mg tablets, phase I): 38%
NCCS(=O)(=O)O  log2 fold change (binding, MIDAS equilibrium dialysis LC-MS; A2AR-BRIL thermostabilized; concentration not given; relative to: no-protein control): -0.111
N#Cc1ccn2c(-c3ccncc3)c(-c3ccc(F)cc3)nc2c1  log2 fold change (kinase binding, competitor, MIB/MS competition, item: YCK2; Candida albicans cell lysate; 100 nM; relative to: DMSO): -1.24
O=P(O)(O)C(Cl)(Cl)P(=O)(O)O  VCAM-1 level (endothelial activation, immunostaining; mouse, SAH model, cortical capillaries; dose not given): 3.64 MFI and 1.56 MFI and 2.98 MFI and 2.24 MFI
NC(=O)c1cnc2[nH]ccc2c1N[C@@H]1[C@@H]2CC3C[C@H]1C[C@@](O)(C3)C2  change from baseline (flow cytometry, item: regulatory T cells; Japanese healthy subjects, peripheral blood; oral, 30 mg twice daily, day 4): -0.17%
COc1cc(Nc2ncc3c(n2)-c2ccc(Cl)cc2C(c2c(F)cccc2OC)=NC3)ccc1C(=O)O  median response score (mouse, KT-10 Wilms tumour xenograft; 5.2 mg/kg; direction not given): 2
C[C@@H](O)CCOC(=O)C[C@@H](C)O  metabolite level (item: C14:2 acylcarnitine; human, plasma; 60 min, log2-transformed values): -5.5 ± 0.9 µmol/L
Cn1cc(Nc2nccc(-c3ccc4c(c3)CN(C3COC3)CC[C@H]4NC(=O)c3cn(C(C)(C)C)nn3)n2)cn1  pathway activation z-score (item: CD40 signalling; mouse splenic B cells, mouse; 30 mg/kg, IgD-activated B cells in vivo; relative to: vehicle, direction not given): 3.87
Cc1n[nH]c2ccc(-c3cc(OC[C@@H](N)Cc4ccccc4)cnc3-c3ccoc3)cc12  log2 fold change (kinase binding, competitor, MIB/MS competition, item: NPR1; Candida albicans cell lysate; 1 µM; relative to: DMSO): -0.0888
CO[C@H]1C[C@@H]2CC[C@@H](C)[C@@](O)(O2)C(=O)C(=O)N2CCCC[C@H]2C(=O)O[C@H]([C@H](C)C[C@@H]2CC[C@@H](OC(=O)NCCOCCOCCOCCOCCOCCOCCOCCOCCC(=O)N3CCc4cc(Cn5nc(-c6ccc7oc(N)nc7c6)c6c(N)ncnc65)ccc4C3)[C@H](OC)C2)C[C@@H](O)[C@H](C)/C=C(\C)[C@@H](O)[C@@H](OC)C(=O)[C@H](C)C[C@H](C)/C=C/C=C/C=C/1C  p4EBP1 level (item: 4EBP1 phospho-Thr37/46; mouse, HCC1954 xenograft, tumour; 1 to 3 mg/kg, weekly, end of dosing interval): decreased
Cn1cc(Nc2nc(N)nc(-c3cccc(-n4ccc5cc(C6CC6)cc(F)c5c4=O)c3CO)n2)cn1  inhibition (CD63 upregulation, anti-IgE-induced; human, multiple ascending dose, whole blood basophils ex vivo; 50 mg twice daily, day 14, 1 h): 61.6%
N#CCC1CCN(c2nc(Nc3ccc(N4CCC(O)CC4)cc3)c3c(=O)[nH]ncc3n2)CC1  GIF level change (Olink multiplex; human, serum; 20 mg, day 29, unit not given; relative to: baseline): 1.08
CCCCCN1C[C@H](O)[C@@H](O)[C@H](O)[C@@H]1CO  genomic disease score (RNA sequencing, item: Hallmark apoptosis genes; Hexb-/- mouse, hippocampus; 300 mg/kg/day; direction not given): 0.62
C[C@@H]1O[C@H](OP(=O)(O)O)[C@@H](O)[C@H](O)[C@@H]1O  log2 fold change (binding, MIDAS equilibrium dialysis LC-MS; A2AR-BRIL thermostabilized; concentration not given; relative to: no-protein control): 0.00452
Cn1cc(-c2ccc(-c3cncc(Cl)c3N3CCC4(CCNC4=O)CC3)cc2)cn1  log2 fold change (COLO 205; gene expression, microarray, item: VLDLR mRNA; concentration not given, 6 h; relative to: untreated cells): 1.37
CCOCc1nc(O)c(-c2nnc(Cc3ccc(Cl)cn3)o2)c(O)c1-c1c(OC)cccc1OC  stroke volume change (renal hypertensive rat; po, 0.1 mg/kg twice daily, peak exposure; relative to: vehicle): 22%
CC1(C)OCCn2c1nc1c(N3CCOCC3)nc(-c3cnc(N)nc3)nc12  GSEA enrichment score (RNA sequencing, item: HALLMARK_KRAS_SIGNALING_DN; MB002 tumour; concentration not given; relative to: vehicle, direction not given): 0.151
CC(O)(CC(=O)O)CC(=O)SCCNC(=O)CCNC(=O)[C@H](O)C(C)(C)COP(=O)(O)OP(=O)(O)OC[C@H]1O[C@@H](n2cnc3c(N)ncnc32)[C@H](O)[C@@H]1OP(=O)(O)O (some centres unmarked)  log2 fold change (binding, MIDAS equilibrium dialysis LC-MS; A2AR-BRIL thermostabilized; concentration not given; relative to: no-protein control): -0.338
C=CCn1c(=O)c2cnc(Nc3ccc(N4CCN(C)CC4)cc3)nc2n1-c1ccc2c(n1)[C@@](O)(CC)CC2  γH2AX level (immunohistochemistry; mouse, A-427 xenograft, tumour; 20 to 80 mg/kg once daily, 3 days; relative to: vehicle): increased
O=C(O)CNC(=O)Cc1ccccc1  sarcomere length (ventricular cardiomyocytes, C57BL/6 mouse; dose not given, 0.652 s): 1.72 µm
O=C(O)CCO  log2 fold change (binding, MIDAS equilibrium dialysis LC-MS; A2AR-BRIL thermostabilized; concentration not given; relative to: no-protein control): -0.284
CC(=O)Oc1cc2c(s1)CCN(C(C(=O)C1CC1)c1ccccc1F)C2 (centres unmarked)  patients with IPA above threshold (platelet aggregation, light transmittance aggregometry; human, platelet-rich plasma; 15 min, IPA above 90 %, together with: TRAP 5 µM; relative to: patients): 0%
CCOc1cc([C@@H](CS(C)(=O)=O)N2C(=O)c3cccc(NC(C)=O)c3C2=O)ccc1OC  plasma TNF-alpha difference (mouse, human PBMC GvHD model, plasma; 5 mg/kg once daily, unit not given; relative to: vehicle): 0.861
C[C@H]1C[C@H]2CSC(N)=N[C@@]2(c2nc(NC(=O)c3ccc(OC(F)F)cn3)cs2)CO1  percent change from baseline (item: Aβ1-40; healthy adults, plasma; 50 mg once daily, day 14; relative to: placebo): -86.2%
NC(=O)NCCCC[C@H](N)C(=O)O  log2 fold change (binding, MIDAS equilibrium dialysis LC-MS; A2AR-BRIL thermostabilized; concentration not given; relative to: no-protein control): -0.0701
CC(C)[C@H](C(=O)Nc1ccc(C(=O)NO)cc1)c1ccccc1  tumour volume (volumetric MRI; human, left parieto-occipital meningioma; dose not given, day 834): 0.0335 cm3
CC1(C)CCC2(CC1)N[C@@H](C(=O)N[C@@H]1CC[C@@H](C(N)=O)OC1)[C@H](c1ccnc(Cl)c1F)[C@]21C(=O)Nc2cc(Cl)ccc21  non-evaluable patients (RECIST; patients with solid tumours; dose not given; relative to: patients): 25%
O=C1O[C@H]([C@@H](O)CO)C(O)=C1O  ferric reducing power (FRAP; 40 µM): 22.7%
N#Cc1ccc2c(c1)[C@H]1CCCN(C(=O)c3ccc4[nH]cnc4c3)[C@H]1C2  fasting plasma glucose (T2DM patients with overweight or obesity, plasma; oral, 240 mg, day 15 (360 h), multiple dosing, mean): 137 mg/dL
Cc1coc([C@H]2C[C@H]3[C@@H](CF)SC(N)=N[C@@]3(c3ccc(F)cc3F)CO2)n1  Aβ40 level (item: Aβx-40; Mus musculus wild-type, cerebrospinal fluid; subcutaneous, 80 mg/kg, 1 h): 0.86 ng/mL
O=C(O)c1cccnc1C(=O)O  log2 fold change (binding, MIDAS equilibrium dialysis LC-MS; A2AR-BRIL thermostabilized; concentration not given; relative to: no-protein control): 0.0822
C[C@H](Oc1ccc(Br)cc1-c1ccon1)C(=O)O  difference from placebo (response latency; human, tibialis anterior muscle; 50 mg, 30 Hz+30 s): -0.199%
CC(C)[C@H](NC(=O)[C@H](Cc1ccc(O)cc1)NC(=O)[C@H](Cc1ccc(O)cc1)NC(=O)[C@@H]1CCCN1C(=O)[C@H](CCC(=O)O)NC(=O)[C@H](CCC(=O)O)NC(=O)[C@H](Cc1c[nH]c2ccccc12)NC(=O)[C@@H]1CCCN1C(=O)[C@@H](NC(=O)[C@H](CCC(N)=O)NC(=O)c1ccc2c(c1)C(=O)OC21c2ccc(O)cc2Oc2cc(O)ccc21)C(C)C)C(=O)N[C@H](C(=O)N[C@@H](CCCCN)C(=O)N[C@@H](CCCCN)C(=O)N[C@@H](CO)C(=O)N[C@@H](CO)C(=O)NCC(=O)NCC(N)=O)C(C)C  plasma concentration (human, plasma; intravenous infusion, 400 mg, 2 h after infusion start): 485 ng/mL and 387 ng/mL
